{"data": "Measured values pooled from the literature", "note": "Lines come from different studies, so protocols differ. “And” joins repeats or separate records; there may be more than shown. ± marks the error that the study gave."}
{"SMILES": "O=C(Nc1nc2cccc(-c3ccc(CN4CCS(=O)(=O)CC4)cc3)n2n1)C1CC1", "assay": "measured: animal bite", "test system": "human rheumatoid arthritis patients", "conditions": "oral, 300 mg once daily, 4 weeks, regardless of relatedness", "quantity": "treatment-emergent adverse events", "value": "0%"}
{"SMILES": "N#Cc1ccc2c(c1)[C@H]1CCCN(C(=O)c3ccc4[nH]cnc4c3)[C@H]1C2", "test system": "human", "conditions": "10 mg, day 7", "scale": "baseline: baseline", "quantity": "cortisol level change", "value": "-176 nmol/L"}
{"SMILES": "Cc1ccc(Sc2ccccc2N2CCNCC2)c(C)c1", "assay": "measured: hot flush", "test system": "healthy adult men", "conditions": "oral, 10 mg daily, 12 days", "quantity": "participants with TEAE", "value": "0%"}
{"SMILES": "O=C1CC[C@H](N2Cc3cc(N4CCN(CC5CCN(c6ccc([C@@H]7c8ccc(O)cc8CC[C@@H]7c7ccccc7)cc6)CC5)CC4)ccc3C2=O)C(=O)N1", "test system": "cryopreserved SD rat hepatocytes", "conditions": "1 µM", "quantity": "scaled intrinsic clearance", "value": "39.1 mL/min/kg"}
{"SMILES": "C[C@@H]1CCO[C@H]2Cn3cc(C(=O)NCc4ccc(F)cc4F)c(=O)c(O)c3C(=O)N12", "test system": "Tat+ transgenic mouse, hippocampus", "conditions": "subcutaneous osmotic pump, dose not given, 5 d", "quantity": "drug concentration", "value": "5800 ± 1100 ng/g"}
{"SMILES": "Cc1c(-c2ccc(N3CCc4cccc(C(=O)Nc5nc6ccccc6s5)c4C3)nc2C(=O)O)cnn1CC12CC3(C)CC(C)(C1)CC(OCCNCC[C@H](O)CO)(C3)C2", "test system": "beagle dog, anaesthetised", "conditions": "intravenous infusion, 0.1 mg/kg/min, 180 min", "scale": "baseline: baseline", "quantity": "mean arterial pressure change", "value": "-14 mmHg"}
{"SMILES": "NC[C@@H]1O[C@H](O[C@H]2[C@@H](O)[C@H](O[C@@H]3[C@@H](O)[C@H](N)C[C@H](N)[C@H]3O[C@H]3O[C@H](CO)[C@@H](O)[C@H](O)[C@H]3N)O[C@@H]2CO)[C@H](N)[C@@H](O)[C@@H]1O", "test system": "NSG mice", "conditions": "dose not given, day 7 of treatment", "quantity": "body weight", "value": "20.5 g and 23.1 g and 23.3 g and 21.9 g and 22.8 g and 24.3 g"}
{"SMILES": "Cn1cc([C@H]2C[C@H]3CSC(N)=N[C@@]3(c3ccc(F)cc3F)CO2)cn1", "test system": "male 129/SVE mouse, CSF", "conditions": "subcutaneous, 3 mg/kg, 1 h", "quantity": "CSF concentration", "value": "27 nM"}
{"SMILES": "Cc1ccc([C@@H]2O[C@H](CO)[C@@H](O)[C@H](O)[C@H]2O)cc1Cc1ccc(-c2ccc(F)cc2)s1", "test system": "Japanese type 2 diabetes patients", "conditions": "200 mg, day 4, 24 h urine collection", "scale": "baseline: baseline", "quantity": "urinary potassium excretion change", "value": "0.54 mEq"}
{"SMILES": "[18F]c1ccc(-c2ccc3c(c2)[nH]c2ccncc23)cn1", "assay": "ex vivo biodistribution", "test system": "B6SJL mouse, normal, hippocampus", "conditions": "intravenous, 30 min", "quantity": "SUV", "value": "0.572 ± 0.316"}
{"SMILES": "Cc1nc(N)sc1-c1ccnc(Nc2ccc(N(C)C)cc2)n1", "test system": "octanol/buffer, 40 mM buffer", "conditions": "pH 11", "quantity": "logP", "value": 3.25}
{"SMILES": "OC[C@H]1OC(O)[C@H](O)[C@@H](O)[C@@H]1O (stereo partly drawn)", "test system": "aqueous solution", "conditions": "35 mM, with: glucosamine", "quantity": "osmolality", "value": "33 mOsmol/kg"}
{"SMILES": "CNS(=O)(=O)Cc1ccc2[nH]cc(CCN(C)C)c2c1", "test system": "octanol/buffer, 40 mM buffer", "conditions": "pH 11", "quantity": "logP", "value": 0.8}
{"SMILES": "CNC(=O)c1ccc(-c2cnc3ncc(Cc4ccc5ncccc5c4)n3n2)cc1F", "test system": "Japanese patients", "conditions": "oral, 400 mg, grade 3/4", "quantity": "ALT increased patients", "value": "3%"}
{"SMILES": "C=CC(=O)N(C)CCOc1c(N)ncnc1-c1cc(F)cc(NC(=O)c2ccc(C3CC3)cc2F)c1C", "test system": "human", "conditions": "oral, 50 mg, day 3, median, given alone", "quantity": "Cmax per dose", "value": "2.38 ng/mL/mg"}
{"SMILES": "Cc1cc(-c2nnc(N)nc2-c2ccc(F)cc2)cc(Cl)n1", "assay": "measured: hypothyroidism", "test system": "IO-naive other solid tumour patients", "conditions": "oral, 100 mg once daily, treatment-related, grade 2", "quantity": "patients with immune-mediated AE", "value": "5.3%"}
{"SMILES": "Cn1cc(-c2ccc(-c3cncc(Cl)c3N3CCC4(CCNC4=O)CC3)cc2)cn1", "target or system": "COLO 205", "assay": "gene expression, microarray, measured: DDB2 mRNA", "conditions": "concentration not given, 6 h", "scale": "baseline: untreated cells", "quantity": "log2 fold change", "value": 2.06}
{"SMILES": "CCOc1c([C@H](C)n2nc(C)c3c(N)ncnc32)cc(Cl)c(F)c1[C@@H]1CNC(=O)C1", "test system": "patients, monotherapy", "conditions": "oral, 45 mg once daily, cycle 1 day 1", "quantity": "AUC(0-last) geometric mean", "value": "16.2 µM·h"}
{"SMILES": "O=C(O)CCCOc1ccc([18F])cc1-c1cc(-c2ccccc2C(F)(F)F)n(-c2ccccc2)n1", "assay": "gamma counting", "test system": "male ddY mice, liver", "conditions": "intravenous, 2.1 MBq, 15 min", "quantity": "radioactivity uptake", "value": "1.2 ± 0.13 SUV"}
{"SMILES": "O=C(O)CCC(=O)O.[2H]C([2H])([2H])Oc1cc(C)c2[nH]ccc2c1CN1CC[C@@H](C2CC2)C[C@H]1c1ccc(C(=O)O)cc1", "test system": "healthy Chinese subjects", "conditions": "600 mg, single ascending dose", "quantity": "TEAE urine bacteria positive", "value": "0%"}
{"SMILES": "O=C1NCCc2nc(OCc3cccc(F)c3)ccc21", "assay": "measured: Irritability", "test system": "Sprague-Dawley rat, male", "conditions": "oral, 100 mg/kg, 1 h, score 0 none to 2 full", "scale": "direction not given", "quantity": "Irwin test score", "value": 0}
{"note": "Some of these lines once more:"}
{"SMILES": "O=C1CC[C@H](N2Cc3cc(N4CCN(CC5CCN(c6ccc([C@@H]7c8ccc(O)cc8CC[C@@H]7c7ccccc7)cc6)CC5)CC4)ccc3C2=O)C(=O)N1", "test system": "cryopreserved SD rat hepatocytes", "conditions": "1 µM", "quantity": "scaled intrinsic clearance", "value": "39.1 mL/min/kg"}
{"SMILES": "C[C@@H]1CCO[C@H]2Cn3cc(C(=O)NCc4ccc(F)cc4F)c(=O)c(O)c3C(=O)N12", "test system": "Tat+ transgenic mouse, hippocampus", "conditions": "subcutaneous osmotic pump, dose not given, 5 d", "quantity": "drug concentration", "value": "5800 ± 1100 ng/g"}
{"SMILES": "Cc1c(-c2ccc(N3CCc4cccc(C(=O)Nc5nc6ccccc6s5)c4C3)nc2C(=O)O)cnn1CC12CC3(C)CC(C)(C1)CC(OCCNCC[C@H](O)CO)(C3)C2", "test system": "beagle dog, anaesthetised", "conditions": "intravenous infusion, 0.1 mg/kg/min, 180 min", "scale": "baseline: baseline", "quantity": "mean arterial pressure change", "value": "-14 mmHg"}
